# Experimental data pooled from the literature.
# Compare with care: the assays were run in different laboratories. Values joined by “and” are separate records of one study, mostly repeats; a detail may differ. ± marks the error that the study gave.
# UniProt Q9UJZ1, sequence (whole entry, looked up): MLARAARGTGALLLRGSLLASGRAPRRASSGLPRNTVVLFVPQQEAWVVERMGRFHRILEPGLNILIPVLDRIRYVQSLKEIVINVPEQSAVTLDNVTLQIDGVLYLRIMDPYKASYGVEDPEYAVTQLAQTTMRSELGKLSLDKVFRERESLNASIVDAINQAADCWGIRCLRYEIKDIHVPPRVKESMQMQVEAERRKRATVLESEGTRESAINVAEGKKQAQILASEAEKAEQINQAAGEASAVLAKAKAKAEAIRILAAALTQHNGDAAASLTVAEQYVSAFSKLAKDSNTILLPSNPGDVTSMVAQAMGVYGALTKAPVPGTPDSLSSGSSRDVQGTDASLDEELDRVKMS
SMILES,target or system,test,test system,setting,scale,measurement,value
CC[C@H](C)[C@H](NC(=O)[C@H](Cc1ccccc1)NC(=O)[C@H](CCC(=O)O)NC(=O)[C@H](CCCNC(=N)N)NC(=O)[C@H](C)NC(=O)[C@H](C)NC(=O)[C@H](CCC(N)=O)NC(=O)[C@H](CCC(=O)O)NC(=O)[C@H](CCC(=O)O)NC(=O)[C@H](CC(C)C)NC(=O)[C@H](Cc1ccc(O)cc1)NC(=O)[C@H](CO)NC(=O)[C@H](CO)NC(=O)[C@@H](NC(=O)[C@H](CC(=O)O)NC(=O)[C@H](CO)NC(=O)[C@@H](NC(=O)[C@H](Cc1ccccc1)NC(=O)[C@@H](NC(=O)CNC(=O)[C@H](CCC(=O)O)NC(=O)[C@H](C)NC(=O)CCc1c[nH]cn1)[C@@H](C)O)[C@@H](C)O)C(C)C)C(=O)N[C@@H](C)C(=O)N[C@@H](Cc1c[nH]c2ccccc12)C(=O)N[C@@H](CC(C)C)C(=O)N[C@H](C(=O)N[C@@H](CCCNC(=N)N)C(=O)NCC(=O)N[C@@H](CCCNC(=N)N)C(=O)N[C@@H](CCCCNC(=O)COCCOCCNC(=O)COCCOCCNC(=O)CC[C@H](NC(=O)CCCCCCCCCCCCCCCCC(=O)O)C(=O)O)C(=O)NCC(=O)NCC(=O)N[C@@H](CO)C(=O)N[C@@H](CCCCNc1c(NCCCCCN(O)C(=O)CCC(=O)NCCCCCN(O)C(=O)CCC(=O)NCCCCCN(O)C(C)=O)c(=O)c1=O)C(=O)O)C(C)C [zirconium-89 labelled],,ex vivo gamma counting,"rat, muscle","subcutaneous, 3 nmol/kg, 4 h, added: [89Zr]-labelled peptide",,tissue uptake,0.06 %ID/g
COc1ccc(C[C@H](NC(=O)[C@H](C)NC(=O)CN2CCOCC2)C(=O)N[C@@H](Cc2ccccc2)C(=O)C2(C)CO2)cc1 (stereo in doubt),Plasmodium falciparum,parasite growth,"Dd2, chloroquine resistant","72 h, ring stage",,IC50,5.1 nM and < 10 nM
CO[C@H]1C[C@@H]2CC[C@@H](C)[C@@](O)(O2)C(=O)C(=O)N2CCCC[C@H]2C(=O)O[C@H]([C@H](C)C[C@@H]2CC[C@@H](OC(=O)NCCOCCOCCOCCOCCOCCOCCOCCOCCC(=O)N3CCc4cc(Cn5nc(-c6ccc7oc(N)nc7c6)c6c(N)ncnc65)ccc4C3)[C@H](OC)C2)C[C@@H](O)[C@H](C)/C=C(\C)[C@@H](O)[C@@H](OC)C(=O)[C@H](C)C[C@H](C)/C=C/C=C/C=C/1C,,,advanced solid tumour patients,"intravenous, dose not given, grade ≥3, all doses",,incidence of SAE,29.8%
C[C@]12CC[C@H](O)C[C@H]1CC[C@@H]1[C@@H]2CC[C@]2(C)[C@@H](c3ccc(=O)oc3)C[C@H]3O[C@]132,Bovine alphaherpesvirus 1,viral replication,MDBK,,,IC50,2500 nM
C[C@@H](O[C@H]1OCCN(Cc2n[nH]c(=O)[nH]2)[C@H]1c1ccc(F)cc1)c1cc(C(F)(F)F)cc(C(F)(F)F)c1,Human immunodeficiency virus 1,viral replication,"PBMC, subtype C isolate, R5, NSI",,,IC50,5330 nM
CC[C@@]1(O)C(=O)OCc2c1cc1n(c2=O)Cc2cc3cc(O)ccc3nc2-1,Bovine alphaherpesvirus 1,viral replication,MDBK,,,IC50,41 nM
CC[C@H](C)[C@@H]1NC(=O)[C@@H]2CCCN2C(=O)[C@H](CC(C)C)NC(=O)[C@H](CC(C)C)NC(=O)CNC(=O)[C@@H](NC(=O)[C@@H](NC(=O)[C@H](CC(=O)O)NC(=O)CNC(=O)[C@@H](NC(=O)[C@H](C)NC(=O)CNC(=O)[C@H](CCCCN)NC(=O)[C@H](CC(C)C)NC(=O)[C@H](CC(C)C)NC(=O)[C@H](CCCCN)NC(=O)CNC(=O)[C@@H](NC(=O)[C@@H](N)CC(C)C)C(C)C)C(C)C)C(C)C)CSSC[C@@H](C(=O)O)NC1=O,,"RNA-seq, item: Gpr132","mouse, traumatic brain injury model, frontal cortex and hippocampus",dose not given,relative to: TBI alone,log2 fold change,-2.87
Nc1nc2c(ncn2COCCO)c(=O)[nH]1,Herpes simplex virus 2,"viral replication, RT-qPCR","Vero, compound-resistant",,,IC50,81700 ± 2810 nM
CC(/N=N/c1ccc(F)cc1)=C1SCCCS1,Schistosoma mansoni,"viability, microscopic scoring",adult worms,,,IC50,5060 nM
CO[C@H]1C[C@H](O[C@H]2CC[C@@]3(C)[C@H](CC[C@@H]4[C@@H]3CC[C@]3(C)[C@@H](C5=CC(=O)OC5)[C@@H](OC(C)=O)C[C@]43O)C2)O[C@@H](C)[C@@H]1O,Bovine alphaherpesvirus 1,viral replication,MDBK,,,IC50,110 nM
C[C@@H]1C[C@@]2(NCCS2)[C@]2(O)O[C@@H]3C[C@@]4(C=O)[C@@H](CC[C@@H]5[C@@H]4CC[C@]4(C)[C@@H](C6=CC(=O)OC6)CC[C@]54O)C[C@H]3O[C@@H]2O1,Schistosoma mansoni,"viability, microscopic viability score",adult worms,72 h,,IC50,140 nM
COc1ccc(C[C@H]2NC[C@H](O)[C@H]2OC(C)=O)cc1,Trichomonas gallinae,"trophozoite viability, CCK-8",,24 h,,IC50,959 nM
C[C@H]1CN(c2n[nH]c3nc(N[C@H]4CC[C@H](NS(=O)(=O)CCC(F)(F)F)CC4)ncc23)CCO1,"Stomatin-like protein 2, mitochondrial (Homo sapiens, UniProt Q9UJZ1)","Kinobeads competition, item: STOML2",,"20 µM, unit not given",relative to: vehicle,remaining binding,1.13

# Repeated from above:
SMILES,target or system,test,test system,setting,scale,measurement,value
CO[C@H]1C[C@H](O[C@H]2CC[C@@]3(C)[C@H](CC[C@@H]4[C@@H]3CC[C@]3(C)[C@@H](C5=CC(=O)OC5)[C@@H](OC(C)=O)C[C@]43O)C2)O[C@@H](C)[C@@H]1O,Bovine alphaherpesvirus 1,viral replication,MDBK,,,IC50,110 nM
